Results gathered from unrelated publications.
Lines come from different studies, so protocols differ.
Gria2/Glutamate receptor 3: Gria2/Glutamate receptor 3 (Rattus norvegicus, UniProt P19491+P19492)
UniProt P19492, sequence (whole entry, looked up): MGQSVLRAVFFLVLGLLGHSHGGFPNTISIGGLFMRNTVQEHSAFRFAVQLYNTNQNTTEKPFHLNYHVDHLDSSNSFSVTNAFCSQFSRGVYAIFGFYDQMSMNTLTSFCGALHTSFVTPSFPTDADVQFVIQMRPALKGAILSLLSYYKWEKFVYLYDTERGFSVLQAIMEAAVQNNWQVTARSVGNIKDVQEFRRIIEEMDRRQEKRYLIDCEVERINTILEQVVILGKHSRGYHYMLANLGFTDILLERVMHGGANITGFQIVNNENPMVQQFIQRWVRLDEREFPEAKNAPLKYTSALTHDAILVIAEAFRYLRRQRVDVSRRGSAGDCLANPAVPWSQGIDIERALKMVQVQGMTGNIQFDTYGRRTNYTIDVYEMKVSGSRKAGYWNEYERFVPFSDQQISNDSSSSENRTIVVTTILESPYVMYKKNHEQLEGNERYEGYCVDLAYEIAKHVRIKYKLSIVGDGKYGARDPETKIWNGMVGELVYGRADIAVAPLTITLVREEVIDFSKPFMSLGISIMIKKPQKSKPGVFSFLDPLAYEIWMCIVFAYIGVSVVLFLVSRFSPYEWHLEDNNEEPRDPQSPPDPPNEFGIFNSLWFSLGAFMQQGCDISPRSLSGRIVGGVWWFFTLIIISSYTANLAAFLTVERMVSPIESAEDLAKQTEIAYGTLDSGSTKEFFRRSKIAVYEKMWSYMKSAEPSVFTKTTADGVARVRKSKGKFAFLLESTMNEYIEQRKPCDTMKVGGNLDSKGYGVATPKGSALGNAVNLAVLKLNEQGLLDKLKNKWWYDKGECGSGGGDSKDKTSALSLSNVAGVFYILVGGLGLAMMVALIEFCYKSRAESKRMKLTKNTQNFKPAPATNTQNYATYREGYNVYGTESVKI
UniProt P19491, sequence (whole entry, looked up): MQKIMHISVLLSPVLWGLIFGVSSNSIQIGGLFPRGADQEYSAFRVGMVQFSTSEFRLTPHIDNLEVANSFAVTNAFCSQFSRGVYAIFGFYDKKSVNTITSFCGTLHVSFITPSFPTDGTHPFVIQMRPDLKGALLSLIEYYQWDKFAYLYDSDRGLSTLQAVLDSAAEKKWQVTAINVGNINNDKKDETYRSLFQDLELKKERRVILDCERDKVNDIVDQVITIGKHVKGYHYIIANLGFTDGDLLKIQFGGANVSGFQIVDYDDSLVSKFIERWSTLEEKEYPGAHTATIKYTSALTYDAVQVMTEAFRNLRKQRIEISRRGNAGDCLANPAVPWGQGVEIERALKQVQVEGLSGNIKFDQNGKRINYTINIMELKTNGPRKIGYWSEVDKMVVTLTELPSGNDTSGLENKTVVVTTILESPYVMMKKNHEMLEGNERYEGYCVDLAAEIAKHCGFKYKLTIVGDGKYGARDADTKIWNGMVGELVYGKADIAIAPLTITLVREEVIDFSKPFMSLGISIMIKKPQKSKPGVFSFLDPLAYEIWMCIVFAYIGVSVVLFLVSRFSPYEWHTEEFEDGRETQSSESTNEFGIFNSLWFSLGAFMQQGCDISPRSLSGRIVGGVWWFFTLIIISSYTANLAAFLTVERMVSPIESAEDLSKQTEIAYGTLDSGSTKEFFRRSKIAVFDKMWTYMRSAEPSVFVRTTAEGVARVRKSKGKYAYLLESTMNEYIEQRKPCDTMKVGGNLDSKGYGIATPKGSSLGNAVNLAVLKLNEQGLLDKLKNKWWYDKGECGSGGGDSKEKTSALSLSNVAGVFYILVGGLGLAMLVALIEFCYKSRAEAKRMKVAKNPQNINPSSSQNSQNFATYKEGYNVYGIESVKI
UniProt Q8WTS6, sequence (whole entry, looked up): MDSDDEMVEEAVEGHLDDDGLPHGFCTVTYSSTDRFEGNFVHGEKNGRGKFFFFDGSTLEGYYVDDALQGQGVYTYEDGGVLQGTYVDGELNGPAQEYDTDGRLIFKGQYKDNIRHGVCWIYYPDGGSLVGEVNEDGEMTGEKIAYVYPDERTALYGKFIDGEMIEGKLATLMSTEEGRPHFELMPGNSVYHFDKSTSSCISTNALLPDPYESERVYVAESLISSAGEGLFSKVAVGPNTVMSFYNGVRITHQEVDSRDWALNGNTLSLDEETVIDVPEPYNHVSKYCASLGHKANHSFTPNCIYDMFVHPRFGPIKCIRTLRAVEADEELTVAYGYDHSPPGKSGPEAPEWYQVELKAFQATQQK
UniProt Q8NFU5, sequence (whole entry, looked up): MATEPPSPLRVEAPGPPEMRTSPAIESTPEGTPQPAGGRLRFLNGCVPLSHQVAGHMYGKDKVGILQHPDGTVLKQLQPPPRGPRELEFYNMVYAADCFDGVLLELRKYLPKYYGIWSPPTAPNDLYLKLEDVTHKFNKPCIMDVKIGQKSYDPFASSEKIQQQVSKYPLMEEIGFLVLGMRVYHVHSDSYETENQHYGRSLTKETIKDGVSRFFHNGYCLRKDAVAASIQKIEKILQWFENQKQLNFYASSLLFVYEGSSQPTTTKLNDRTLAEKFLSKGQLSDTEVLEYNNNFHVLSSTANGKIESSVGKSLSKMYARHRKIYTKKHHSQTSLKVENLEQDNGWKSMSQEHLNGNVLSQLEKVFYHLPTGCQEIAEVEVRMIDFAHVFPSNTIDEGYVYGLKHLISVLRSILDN
UniProt B2RXH2, sequence (whole entry, looked up): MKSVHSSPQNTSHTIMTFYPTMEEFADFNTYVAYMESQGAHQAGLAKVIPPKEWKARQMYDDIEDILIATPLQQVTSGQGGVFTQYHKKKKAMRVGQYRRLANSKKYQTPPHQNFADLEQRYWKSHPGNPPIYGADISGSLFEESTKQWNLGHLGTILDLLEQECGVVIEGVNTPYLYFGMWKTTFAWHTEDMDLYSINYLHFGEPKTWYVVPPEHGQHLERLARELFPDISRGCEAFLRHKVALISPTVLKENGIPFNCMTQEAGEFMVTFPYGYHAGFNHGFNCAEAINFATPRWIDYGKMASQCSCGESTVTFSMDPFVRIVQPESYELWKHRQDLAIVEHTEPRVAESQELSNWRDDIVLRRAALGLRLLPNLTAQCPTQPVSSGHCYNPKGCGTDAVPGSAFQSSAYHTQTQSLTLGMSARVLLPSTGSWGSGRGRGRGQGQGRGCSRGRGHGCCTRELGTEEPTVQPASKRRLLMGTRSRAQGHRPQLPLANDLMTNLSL
UniProt Q9UBF8, sequence (whole entry, looked up): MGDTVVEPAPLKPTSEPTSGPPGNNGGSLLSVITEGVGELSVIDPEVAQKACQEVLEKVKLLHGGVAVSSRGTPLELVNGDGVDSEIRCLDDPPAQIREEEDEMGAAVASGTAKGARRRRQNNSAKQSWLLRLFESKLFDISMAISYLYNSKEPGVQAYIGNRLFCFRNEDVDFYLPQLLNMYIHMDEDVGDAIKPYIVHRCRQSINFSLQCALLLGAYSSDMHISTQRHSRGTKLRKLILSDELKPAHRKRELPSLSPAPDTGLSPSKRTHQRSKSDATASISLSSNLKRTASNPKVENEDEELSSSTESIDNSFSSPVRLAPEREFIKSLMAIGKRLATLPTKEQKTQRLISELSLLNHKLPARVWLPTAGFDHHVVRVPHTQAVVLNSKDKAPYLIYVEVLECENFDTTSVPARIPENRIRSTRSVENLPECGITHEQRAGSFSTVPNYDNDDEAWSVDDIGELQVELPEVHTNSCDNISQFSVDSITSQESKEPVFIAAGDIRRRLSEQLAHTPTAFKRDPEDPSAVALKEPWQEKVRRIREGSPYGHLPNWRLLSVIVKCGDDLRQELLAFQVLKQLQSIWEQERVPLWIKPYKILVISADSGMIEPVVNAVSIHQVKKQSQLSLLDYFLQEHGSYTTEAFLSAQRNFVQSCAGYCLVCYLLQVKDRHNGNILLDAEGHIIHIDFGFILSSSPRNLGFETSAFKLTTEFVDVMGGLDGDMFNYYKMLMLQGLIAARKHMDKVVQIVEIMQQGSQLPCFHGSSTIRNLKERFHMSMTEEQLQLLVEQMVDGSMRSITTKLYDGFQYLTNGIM
UniProt P11229, sequence (whole entry, looked up): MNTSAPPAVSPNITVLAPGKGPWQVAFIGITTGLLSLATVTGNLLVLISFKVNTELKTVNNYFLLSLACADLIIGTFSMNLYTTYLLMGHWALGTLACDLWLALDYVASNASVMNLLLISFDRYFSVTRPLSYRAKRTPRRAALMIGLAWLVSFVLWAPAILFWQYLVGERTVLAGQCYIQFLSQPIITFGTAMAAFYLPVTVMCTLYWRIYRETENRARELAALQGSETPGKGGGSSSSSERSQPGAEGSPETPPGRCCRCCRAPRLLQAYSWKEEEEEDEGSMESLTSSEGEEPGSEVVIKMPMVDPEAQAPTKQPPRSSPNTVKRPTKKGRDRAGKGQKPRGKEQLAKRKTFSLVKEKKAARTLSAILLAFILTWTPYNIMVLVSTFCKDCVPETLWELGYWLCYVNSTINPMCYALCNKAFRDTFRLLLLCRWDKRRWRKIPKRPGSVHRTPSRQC
UniProt P20618, sequence (whole entry, looked up): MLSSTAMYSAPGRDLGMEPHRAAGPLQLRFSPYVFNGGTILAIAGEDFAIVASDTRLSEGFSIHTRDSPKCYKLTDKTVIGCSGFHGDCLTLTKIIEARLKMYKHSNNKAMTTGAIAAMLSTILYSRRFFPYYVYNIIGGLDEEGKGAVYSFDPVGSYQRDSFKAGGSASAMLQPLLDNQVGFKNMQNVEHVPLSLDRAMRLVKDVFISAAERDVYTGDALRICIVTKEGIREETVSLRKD
UniProt P28062, sequence (whole entry, looked up): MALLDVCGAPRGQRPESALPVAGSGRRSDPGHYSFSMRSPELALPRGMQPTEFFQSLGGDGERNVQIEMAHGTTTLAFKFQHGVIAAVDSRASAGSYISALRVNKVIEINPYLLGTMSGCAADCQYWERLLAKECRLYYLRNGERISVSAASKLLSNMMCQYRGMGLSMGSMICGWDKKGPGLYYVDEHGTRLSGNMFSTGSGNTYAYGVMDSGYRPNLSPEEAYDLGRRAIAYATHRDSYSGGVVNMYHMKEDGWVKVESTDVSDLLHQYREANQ

SMILES	target or system	test	test system	setting	how to read	measurement	value
C[C@@H]1CN(Cc2ccc(S(=O)(=O)n3cnc(C4CC4)n3)cc2)[C@@H](C)CN1c1cc(=O)n(C)c2ccc(C#N)nc12	Diacylglycerol kinase zeta (DGKZ, Homo sapiens, UniProt Q13574)	inhibitor, ADP-Glo	–	with: DAG micelles	–	IC50	3.16 µM
Cc1cc(-c2ccc3ncnc(Nc4ccc(OCc5cccc(F)c5)c(Cl)c4)c3c2)cnc1N1CCOCC1	Leishmania major	intracellular amastigote growth, luciferase	RAW264.7 macrophages	–	–	EC50	1.1 µM
O=C1Nc2ccccc2/C1=N/c1ccc(Cl)cc1Br	Phosphatidylinositol 4,5-bisphosphate 3-kinase catalytic subunit alpha isoform (PIK3CA, Homo sapiens, UniProt P42336)	enzyme activity, inhibitor, ADP detection	–	–	–	IC50	0.0383 µM
O=C(O)Cc1cc2c(cc1C(=O)c1cccc(I)c1)OCO2	Gria2/Glutamate receptor 3	ion current, antagonist, patch clamp	–	–	–	IC50	4.68 µM
CNC(=O)c1ccc(-c2cc(Cl)cc(Cl)c2Cl)c(N)n1	Sodium channel protein type 10 subunit alpha (SCN10A, Homo sapiens, UniProt Q9Y5Y9, G1406S)	ion current, inhibitor, patch clamp	–	–	–	IC50	27.7 µM
O=C(CCNC(=O)CNC(=O)CC(c1ccccc1)(c1ccccc1)c1ccccc1)NC[C@@H]1CCCN(C[C@H]2C[C@H](F)C2)C1	Muscarinic acetylcholine receptor M1 (CHRM1, Homo sapiens, UniProt P11229)	ligand displacement, radioligand	–	cell membranes	–	IC50	> 30 µM
CC(C)C[C@@H](NC(=O)[C@@H](CC(C)C)NC(=O)[C@@H](CC(=O)O)NC(=O)[C@@H](CC(C)C)NC(=O)[C@@H](CC(C)C)NC(=O)[C@@H](CC(C)C)NC(=O)[C@H](NC(=O)[C@@H](CC(=O)O)NC(=O)[C@H](NC(=O)[C@H]1CCCN1C(=O)[C@@H](Cc1ccccc1)NC(=O)[C@@H](CC(C)C)NC(=O)[C@@H](CC(C)C)NC(=O)[C@@H](CC(=O)O)NC(=O)[C@@H](CC(C)C)NC(=O)[C@@H](Cc1ccc(O)cc1)NC(=O)[C@@H](C)NC(=O)[C@@H](CCCNC(=N)N)NC(=O)[C@@H](Cc1c[nH]c2ccccc12)NC(=O)[C@H]1CCCN1C(=O)[C@@H](CC(N)=O)NC(=O)[C@@H](CCC(N)=O)NC(=O)[C@@H](CC(=O)O)NC(=O)[C@@H](CC(=O)O)NC(=O)[C@@H](CSC1CC(=O)N(CCNC(=O)CN2CCN(CC(=O)O)CCN(CC(=O)O)CC2)C1=O)NC(=O)[C@@H](C)N)[C@H](C)O)[C@H](C)O)C(=O)N[C@H](Cc1c[nH]c2ccccc12)C(=O)O (some centres unmarked) [fluorine-18 labelled]	–	–	female C57BL/6 mice, B16-F10 melanoma, blood	intravenous, 4 h	–	tissue uptake	17.2 %ID/g
COC1CN([C@H]2CC[C@H]([C@@]3(C)Oc4c(Cl)cc(C(=O)NCc5c(SC)cc(C)[nH]c5=O)c(C)c4O3)CC2)C1	–	RNA-seq, measured: CAMSAP3	human, whole blood	dose not given, 24 h	baseline: pretreatment baseline	log2 fold change	3.92
CCCC1CCCc2c1[nH]c(=O)c(C#N)c2-c1ccc(C)cc1 (centres unmarked)	High affinity cGMP-specific 3',5'-cyclic phosphodiesterase 9A (PDE9A, Homo sapiens, UniProt O76083)	enzyme activity, inhibitor, radiometric	–	–	–	IC50	0.0093 µM
CC(C)(C)OCc1ccc(-c2ccc3ncnc(Nc4ccc(OCc5cccc(F)c5)c(Cl)c4)c3c2)cc1	Leishmania major	intracellular amastigote growth, luciferase	RAW264.7 macrophages	–	–	EC50	4.1 µM
Fc1ccc(Nc2nc(NC3CCCCC3)c3cc(C(F)(F)F)ccc3n2)cc1F	Beta-2 adrenergic receptor (ADRB2, Homo sapiens, UniProt P07550)	cAMP production, antagonist, GloSensor	–	with: isoproterenol 1 µM	–	IC50	> 50 µM
C#CCCn1nc(C)c2c(Cl)c(C(=O)NCC3CC(Br)=NO3)cnc21 (centres unmarked)	60 kDa heat shock protein, mitochondrial, with HSP10 (Homo sapiens, UniProt P10809)	HSP60/10-mediated MDH refolding	–	5 min, preincubation before ATP, with: denatured malate dehydrogenase	–	IC50	67 µM
COc1c(Cl)cccc1Nc1c(-c2ccncc2C#C[C@@]2(C)CCCN2C(=O)/C=C/CN(C)C)[nH]c2c1C(=O)NCC2	Mitogen-activated protein kinase 9 (MAPK9, Homo sapiens, UniProt P45984)	–	–	–	–	IC50	> 3 µM
Nc1nonc1-c1nnc2c(n1)-c1ccccc1C2=O	Histone-lysine N-methyltransferase SETD7 (SETD7, Homo sapiens, UniProt Q8WTS6)	enzyme activity, inhibitor	–	–	–	IC50	> 50 µM
COC(=O)Cc1cc2c(cc1C(=O)c1cccc(I)c1)OCO2	Gria2/Glutamate receptor 3	ion current, patch clamp	–	–	–	IC50	5.83 µM
COc1cccc(CNc2nc(NC3CCN(Cc4cccc(C(=O)O)c4)CC3)c3nc[nH]c3n2)c1	Inositol polyphosphate multikinase (IPMK, Homo sapiens, UniProt Q8NFU5)	enzyme activity, inhibitor	–	–	–	IC50	24 µM
CC(C)(C)NC(=O)CC(NC(=O)CCc1ccccc1)C(=O)NCCNC(=O)c1cccc2ccccc12 (centres unmarked)	Proteasome component C5/PSMB8 (Homo sapiens, UniProt P20618+P28062)	enzyme activity, inhibitor	–	immunoproteasome β5i	–	IC50	0.37 µM
O=C(O)C(=O)N[C@H](Cc1ccc(O)cc1)C(=O)O	Lysine-specific demethylase 4E (KDM4E, Homo sapiens, UniProt B2RXH2)	enzyme activity, inhibitor	–	–	–	IC50	> 1000 µM
O=C(O)Cc1cc2c(cc1C(=O)c1ccc(Cl)cc1Cl)OCO2	Gria2/Glutamate receptor 3	ion current, patch clamp	–	–	–	IC50	4.02 µM
Cc1nn(-c2cccc(N)c2)c(=O)c2cnc(Nc3ccc(N4CCNCC4)cc3)nc12	Phosphatidylinositol 4-kinase beta (PI4KB, Homo sapiens, UniProt Q9UBF8)	enzyme activity, inhibitor	–	–	–	IC50	> 10 µM

Repeated from above:
SMILES	target or system	test	test system	setting	how to read	measurement	value
O=C(CCNC(=O)CNC(=O)CC(c1ccccc1)(c1ccccc1)c1ccccc1)NC[C@@H]1CCCN(C[C@H]2C[C@H](F)C2)C1	Muscarinic acetylcholine receptor M1 (CHRM1, Homo sapiens, UniProt P11229)	ligand displacement, radioligand	–	cell membranes	–	IC50	> 30 µM
CC(C)C[C@@H](NC(=O)[C@@H](CC(C)C)NC(=O)[C@@H](CC(=O)O)NC(=O)[C@@H](CC(C)C)NC(=O)[C@@H](CC(C)C)NC(=O)[C@@H](CC(C)C)NC(=O)[C@H](NC(=O)[C@@H](CC(=O)O)NC(=O)[C@H](NC(=O)[C@H]1CCCN1C(=O)[C@@H](Cc1ccccc1)NC(=O)[C@@H](CC(C)C)NC(=O)[C@@H](CC(C)C)NC(=O)[C@@H](CC(=O)O)NC(=O)[C@@H](CC(C)C)NC(=O)[C@@H](Cc1ccc(O)cc1)NC(=O)[C@@H](C)NC(=O)[C@@H](CCCNC(=N)N)NC(=O)[C@@H](Cc1c[nH]c2ccccc12)NC(=O)[C@H]1CCCN1C(=O)[C@@H](CC(N)=O)NC(=O)[C@@H](CCC(N)=O)NC(=O)[C@@H](CC(=O)O)NC(=O)[C@@H](CC(=O)O)NC(=O)[C@@H](CSC1CC(=O)N(CCNC(=O)CN2CCN(CC(=O)O)CCN(CC(=O)O)CC2)C1=O)NC(=O)[C@@H](C)N)[C@H](C)O)[C@H](C)O)C(=O)N[C@H](Cc1c[nH]c2ccccc12)C(=O)O (some centres unmarked) [fluorine-18 labelled]	–	–	female C57BL/6 mice, B16-F10 melanoma, blood	intravenous, 4 h	–	tissue uptake	17.2 %ID/g
COC1CN([C@H]2CC[C@H]([C@@]3(C)Oc4c(Cl)cc(C(=O)NCc5c(SC)cc(C)[nH]c5=O)c(C)c4O3)CC2)C1	–	RNA-seq, measured: CAMSAP3	human, whole blood	dose not given, 24 h	baseline: pretreatment baseline	log2 fold change	3.92
